Published values collected from several papers.
Protocols differ between the studies behind these lines. Numbers after ± are the reported error.

With `O=C(O)c1nc2ccccc2c(=O)n1Cc1cn(-c2cccc(Cl)c2)nn1` the IC50 was 245 µg/mL (Candida tropicalis; microbial growth, broth dilution; ATCC750; 24 h).
`Cc1ccc(Nc2nc(-c3cc(C(=O)Nc4ccccn4)no3)cs2)cc1O` gave an IC50 of greater than 100 µM (Mycobacteroides abscessus; Bamboo; 72 h).
For `Nc1nc2c(ncn2COCCO)c(=O)[nH]1`, the IC50 was 0.4 ± 0.2 µM (human alphaherpesvirus 1; viral GFP expression, live cell imaging; primary fibroblasts, six donors, K26, GFP-expressing; peak infection time).
`Cc1ccc(Nc2nc(-c3cc(C(=O)Nc4ccncc4)no3)cs2)cc1` gave an IC50 of greater than 100 µM (Mycobacteroides abscessus; Bamboo; 72 h).
`CCCCOc1ccc(-c2c[nH]c(N)n2)cc1` gave an IC50 of 18.7 µM (Mycolicibacterium smegmatis; biofilm formation, crystal violet).
With `Cc1ccc(Nc2nc(-c3cc(C(=O)Nc4ccc(O)cc4)no3)cs2)cc1` the IC50 was greater than 100 µM (Mycobacteroides abscessus; Bamboo; 72 h).
`O=C(O)c1nc2ccccc2c(=O)n1Cc1cn(-c2ccccc2F)nn1` has an IC50 of 24.8 µg/mL (Candida tropicalis; microbial growth, broth dilution; ATCC750; 24 h).
For `Cc1ccc(C(=O)N(C(=O)c2ccc(C)cc2)C(=S)N2N=C(c3ccc(Cl)cc3)CC2c2ccc(F)cc2)cc1` (centres unmarked), the IC50 was 142 ± 8.1 µM (Artemia; cytotoxicity; 24 h).
`CCCCOc1ccc(-c2nc(N)[nH]c2C(F)(F)F)cc1` has an IC50 of 15.4 µM (Mycolicibacterium smegmatis; biofilm formation, crystal violet).
For `O=C(O)c1nc2ccccc2c(=O)n1Cc1cn(-c2cccc([N+](=O)[O-])c2)nn1`, the IC50 was 521 µg/mL (Candida tropicalis; microbial growth, broth dilution; ATCC750; 24 h).
With `Cc1ccc(C(=O)N(C(=O)c2ccc(C)cc2)C(=S)N2N=C(c3ccc(Br)cc3)CC2c2cccc(F)c2)cc1` (centres unmarked) the IC50 was 103 ± 7.9 µM (Artemia; cytotoxicity; 24 h).
`CCOc1ccc(-c2c[nH]c(N)n2)cc1` gave an IC50 of 27.9 µM (Mycolicibacterium smegmatis; biofilm formation, crystal violet).
With `O=c1c(O)c(-c2cc(O)c(O)c(O)c2)oc2cc(O)cc(O)c12` the IC50 was 2.5 ± 0.1 µM (human alphaherpesvirus 1; viral replication; HeLa, F; 24 h).
For `Cc1ccc(Nc2nc(-c3cc(C(=O)Nc4cccc(O)c4)no3)cs2)cc1`, the IC50 was greater than 100 µM (Mycobacteroides abscessus; Bamboo; 72 h).
For `CO[C@H]1/C=C/O[C@@]2(C)Oc3c(C)c(O)c4c(c3C2=O)C2=NC3(CCN(CC(C)C)CC3)NC2=C(NC(=O)/C(C)=C\C=C\[C@H](C)[C@H](O)[C@@H](C)[C@@H](O)[C@@H](C)[C@H](OC(C)=O)[C@@H]1C)C4=O`, the IC50 was 9.7 µM (Mycobacteroides abscessus; ATCC 19977; 1:1 CAMHB:human serum).
`CCOC(=O)c1nc2ccccc2c(=O)n1Cc1cn(-c2ccc(Cl)cc2)nn1` has an IC50 of 250 µg/mL (Candida tropicalis; microbial growth, broth dilution; ATCC750; 24 h).
For `Cc1ccc(C(=O)N(C(=O)c2ccc(C)cc2)C(=S)N2N=C(c3ccc(Cl)cc3)CC2c2ccc(Cl)cc2)cc1` (centres unmarked), the IC50 was 114 ± 11.6 µM (Artemia; cytotoxicity; 24 h).
`CC(C)=CCC/C(C)=C/CNCCNC1C2CC3CC(C2)CC1C3` (centres unmarked) gave an IC50 of 1 µM (Mycobacterium tuberculosis; growth; H37Rv).
The IC50 of `COc1cccc2c1C(=O)c1c(O)c3c(c(O)c1C2=O)C[C@@](O)(C(=O)CO)C[C@@H]3O[C@H]1C[C@H](N)[C@H](O)[C@H](C)O1` is reported as 9.8 ± 5.9 µM (Artemia; cytotoxicity; 24 h).
The IC50 of `chromium mesoporphyrin` is reported as 58.6 ± 16.4 µM (Leishmania tarentolae; resazurin viability; promastigotes).
With `CCCCc1ccc(-c2c[nH]c(N)n2)cc1` the IC50 was 19.8 µM (Mycolicibacterium smegmatis; biofilm formation, crystal violet).
The IC50 of `Cc1ccc(Nc2nc(-c3cc(C(=O)Nc4cccc(F)c4)no3)cs2)cc1` is reported as greater than 100 µM (Mycobacteroides abscessus; Bamboo; 72 h).
`CCOC(=O)c1nc2ccccc2c(=O)n1Cc1cn(-c2cccc([N+](=O)[O-])c2)nn1` gave an IC50 of 117 µg/mL (Candida tropicalis; microbial growth, broth dilution; ATCC750; 24 h).
The IC50 of `Cc1ccc(Nc2nc(-c3cc(C(=O)Nc4ccc(F)cc4)no3)cs2)cc1` is reported as greater than 100 µM (Mycobacteroides abscessus; Bamboo; 72 h).
`CCOC(=O)c1nc2ccccc2c(=O)n1Cc1cn(-c2cccc(C)c2)nn1` has an IC50 of 137 µg/mL (Candida tropicalis; microbial growth, broth dilution; ATCC750; 24 h).
`CCCCCOc1ccc(-c2c[nH]c(N)n2)cc1` gave an IC50 of 12.5 µM (Mycolicibacterium smegmatis; biofilm formation, crystal violet).
`CCOC(=O)c1nc2ccccc2c(=O)n1Cc1cn(-c2ccccc2C)nn1` has an IC50 of 191 µg/mL (Candida tropicalis; microbial growth, broth dilution; ATCC750; 24 h).
`N=C(N)c1ccc(OCCCCCOc2ccc(C(=N)N)cc2)cc1` has an IC50 of 2.05 ± 1.44 µM (Leishmania tarentolae; viability, resazurin; promastigotes, Schneider's medium; 48 h, 26 °C, together with: 6 µM hemin).
For `CCCOc1ccc(-c2nc(N)[nH]c2C(F)(F)F)cc1`, the IC50 was 17.1 µM (Mycolicibacterium smegmatis; biofilm formation, crystal violet).
With `CCOC(=O)c1nc2ccccc2c(=O)n1Cc1cn(-c2cccc(Cl)c2)nn1` the IC50 was 28 µg/mL (Candida tropicalis; growth, broth dilution; ATCC 750; 24 h).
`C[C@H]1O[C@@H](O[C@H]2[C@@H](O)C[C@H](O[C@H]3[C@@H](O)C[C@H](O[C@H]4CC[C@@]5(C)[C@H](CC[C@@H]6[C@@H]5C[C@@H](O)[C@]5(C)[C@@H](C7=CC(=O)OC7)CC[C@]65O)C4)O[C@@H]3C)O[C@@H]2C)C[C@H](O)[C@@H]1O` gave an IC50 of 0.615 ± 0.12 µM (transmissible gastroenteritis virus; viral replication, immunofluorescence; ST cells; 6 h post-infection, pretreated 1 h).
`Cc1ncc(CO)c(/C=N/NC(=O)c2ccncc2)c1O` has an IC50 of greater than 600 µM (Leishmania tarentolae; parasite growth, resazurin; promastigote).
